{"data": "Experimental data pooled from the literature", "rep main protease": "Replicase polyprotein 1ab, main protease (rep, Severe acute respiratory syndrome-related coronavirus, UniProt P0C6X7)", "rep papain-like protease": "Replicase polyprotein 1ab, papain-like protease (rep, Severe acute respiratory syndrome-related coronavirus, UniProt P0C6X7)", "note": "Each line is one published result; not all experiments were run side by side. ± gives the spread as reported."}
{"Structure (SMILES)": "Oc1cc(O)cc(Oc2c(O)cc(O)cc2Oc2c(O)cc(O)cc2O)c1", "tested on": "rep main protease", "test system": "Vero", "conditions": "200 µM", "quantity": "inhibition", "result": "15%"}
{"Structure (SMILES)": "CC(C)(C)OC(=O)C[C@H](NC(=O)OCc1ccccc1)C(=O)CBr", "tested on": "rep main protease", "test": "isothermal titration calorimetry", "conditions": "pH 7.4, 25 °C, 2% DMSO", "quantity": "entropic contribution -TΔS", "result": "-6.7 kcal/mol"}
{"Structure (SMILES)": "N#CC1=C(N)OC2=C(c3sc(N)c(C#N)c3CC2)C1c1ccccc1Cl (centres unmarked)", "tested on": "Replicase polyprotein 1ab, nsp14 (rep, Severe acute respiratory syndrome-related coronavirus, UniProt P0C6X7)", "conditions": "50 µM", "quantity": "inhibition", "result": "98.2 ± 6.51%"}
{"Structure (SMILES)": "O=c1cc(-c2ccc(O)cc2)oc2c([C@@H]3OC[C@H](O)[C@H](O)[C@H]3O)c(O)c([C@@H]3O[C@H](CO)[C@@H](O)[C@H](O)[C@H]3O)c(O)c12", "tested on": "rep papain-like protease", "test": "enzyme activity, inhibitor", "conditions": "8 µM", "quantity": "inhibition", "result": "53.1%"}
{"Structure (SMILES)": "CC(C)CC(NC(=O)C(NC(=O)C(C)NC(=O)OCc1ccccc1)C(C)C)C(=O)NC(Cc1ccccc1)C(=O)C(F)(F)F (mixture of isomers)", "tested on": "rep main protease", "test": "inhibitor", "conditions": "concentration not given, prolonged incubation", "quantity": "Ki decrease", "result": "30 fold"}
{"Structure (SMILES)": "CCC[C@H](NC(=O)[C@H](CC(C)C)NC(=O)OCc1ccccc1)C(=O)C(=O)NCc1ccccn1", "tested on": "rep main protease", "test": "thermal stability", "quantity": "ΔTm", "result": "2.41 °C"}
{"Structure (SMILES)": "CCOC(=O)/C=C/[C@H](C[C@@H]1CCNC1=O)NC(=O)[C@H](CC(C)C)NC(=O)[C@@H](NC(=O)O[C@H]1CCOC1)C(C)C", "tested on": "rep main protease", "test": "enzyme activity, inhibitor", "conditions": "50 µM", "quantity": "inhibition", "result": "76%"}
{"Structure (SMILES)": "CCCCCCCCCCCCCCCC(=O)N[C@@H](CCC(=O)NCCOCCOCCC(=O)NCCOCCOCCC(=O)NCCCC[C@H](NC(=O)[C@H](CC(=O)O)NC(=O)[C@H](CC(C)C)NC(=O)[C@H](Cc1ccc(O)cc1)NC(=O)[C@H](CCCCN)NC(=O)[C@H](CO)NC(=O)[C@H](Cc1ccc(O)cc1)NC(=O)[C@H](CC(=O)O)NC(=O)[C@H](CO)NC(=O)[C@@H](NC(=O)[C@H](Cc1ccccc1)NC(=O)[C@@H](NC(=O)CNC(=O)[C@H](CCC(N)=O)NC(=O)[C@@H](CO)NC(=O)[C@@H](N)Cc1c[nH]cn1)[C@@H](C)O)[C@@H](C)O)C(=O)N[C@@H](CCCNC(=N)N)C(=O)N[C@@H](CCCNC(=N)N)C(=O)N[C@@H](C)C(=O)N[C@@H](CCC(N)=O)C(=O)N[C@@H](CC(=O)O)C(=O)N[C@@H](Cc1ccccc1)C(=O)N[C@H](C(=O)N[C@@H](CCC(N)=O)C(=O)N[C@@H](Cc1c[nH]c2ccccc12)C(=O)N[C@@H](CC(C)C)C(=O)N[C@@H](CC(C)C)C(=O)N[C@@H](CC(N)=O)C(=O)N[C@H](C(=O)NCC(=O)NCC(=O)N1CCC[C@H]1C(=O)N[C@@H](CO)C(=O)N[C@@H](CO)C(=O)NCC(=O)N[C@@H](C)C(=O)N1CCC[C@H]1C(=O)N1CCC[C@H]1C(=O)N1CCC[C@H]1C(=O)N[C@@H](CO)C(N)=O)[C@@H](C)O)C(C)C)C(=O)O", "test system": "rhesus monkey, male, plasma", "conditions": "subcutaneous, 60 µg/kg, day 1, toxicokinetics, mean", "quantity": "AUC(0-t)", "result": "422 ng·h/mL"}
{"Structure (SMILES)": "Cc1ccc(N2CC3CC(C2)N3C)cc1C(=O)NC1(c2ccc3c4c(cccc24)C(=O)N3C)CC1", "tested on": "rep papain-like protease", "test": "enzyme activity", "conditions": "20 µM", "quantity": "inhibition", "result": "106%"}
{"Structure (SMILES)": "COc1cc2c3c(c4cc(OC)c(OC)cc4c2cc1OC)CN1CCCCC1C3 (centres unmarked)", "tested on": "rep main protease", "test": "enzyme activity", "conditions": "concentration not given", "quantity": "inhibition", "result": "no inhibition"}
{"Structure (SMILES)": "CSCC[C@@H](C=O)NC(=O)[C@H](CC(C)C)NC(=O)[C@H](CC(C)C)NC(C)=O", "tested on": "rep main protease", "test": "thermal stability", "quantity": "ΔTm", "result": "2.88 °C"}
{"note": "Some of these lines once more:"}
{"Structure (SMILES)": "O=c1cc(-c2ccc(O)cc2)oc2c([C@@H]3OC[C@H](O)[C@H](O)[C@H]3O)c(O)c([C@@H]3O[C@H](CO)[C@@H](O)[C@H](O)[C@H]3O)c(O)c12", "tested on": "rep papain-like protease", "test": "enzyme activity, inhibitor", "conditions": "8 µM", "quantity": "inhibition", "result": "53.1%"}
